Assay results pooled from the literature.
Every numbered part comes from another study and shows a few of its results, in no order. Substitutions count along the parent as printed.

Series 1
Target: Fragile X messenger ribonucleoprotein 1, C-terminal low-complexity region (Fmr1, Mus musculus, UniProt P35922)
Technique: RNA Bind-n-Seq
Form: RNA
Sample: in vitro
Concentration: 200 nM
Setting: whole 134-nt RNA, ends assumed
Together with: 150 mM LiCl
Baseline: input library
Direction: higher = stronger binding
All molecules: 7-deaza-guanosine replaces G
Sequence | log2 enrichment
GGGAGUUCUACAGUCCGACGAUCUGGCCCUGGUGGCAUGCGGGAAGGAAGAGGUGGCCUCAUGGAUCGUGGUGGUCCCGGUGGAAUGUUCAGAGGUGGCCGUGGUGGAGACAGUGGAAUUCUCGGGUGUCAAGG | 0.3
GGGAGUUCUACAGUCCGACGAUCCACAGACAACAAAAACCCACACAGACACAGAGGGAAGGGGUUGGGAUGGGGACAGGGUGCACAGCAGGGCGGGGUAGGACCCCAGCCCCUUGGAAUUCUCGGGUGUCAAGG | 0.543
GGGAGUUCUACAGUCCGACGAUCGUCCUGUGCUACACAUCGUAUGUACCGAAUCGGGGUUUUUUUGGGGAGGGGUUUGGGGAAAGUAUUAUGUUACGCCGUUCGGAUCUGCACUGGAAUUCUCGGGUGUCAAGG | -0.266
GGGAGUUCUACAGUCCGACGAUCUUUUAAAGUGUUCUCCACCACACUUGGGCAUUUAUCUGUUUCUUUAAAUGGCCUUCUCUGUUUCUUGUUUGCAGGCAGCUAUCAAUGGUGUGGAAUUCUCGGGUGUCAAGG | 1.34
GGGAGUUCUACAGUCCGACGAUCUCCUGUGCUACACAUCGUAUGUACCGAAUCGGGGAAAAAAGGGAAAAAAGGAAAAAAGGAAAGUAUUAUGUUACGCCGUUCGGAUCUGCAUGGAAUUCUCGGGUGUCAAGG | 0.11
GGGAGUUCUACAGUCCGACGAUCGUCCUGUGCUACACAUCGUAUGUACCGAAUCGGGGCCCCCGGGCCCCCGGGCCCCCGGGAAAGUAUUAUGUUACGCCGUUCGGAUCUGCAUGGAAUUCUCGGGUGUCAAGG | -2.95
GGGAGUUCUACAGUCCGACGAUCGUCCUGUGCUACACAUCGUAUGUACCGAAUCGGUUUUUUUGGAAAAAGGAAAAAAAGGAAAGUAUUAUGUUACGCCGUUCGGAUCUGCACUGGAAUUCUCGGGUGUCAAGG | -2.49
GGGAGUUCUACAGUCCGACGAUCUAACUUUAGAGGAGGAUCUGAUGGAAAUGGCAGUGGACGUGGAUUUGGGGAUGGCUAUAAUGGGUAUGGAGGAGGACCUGGAGGUGGCAAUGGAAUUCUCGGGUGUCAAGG | 0.0789

Series 2
Target: Sal-like protein 4, full length isoform A (SALL4, Homo sapiens, UniProt Q9UJQ4, residues 1-1053)
Chain of UniProt Q9UJQ4 (whole entry, looked up): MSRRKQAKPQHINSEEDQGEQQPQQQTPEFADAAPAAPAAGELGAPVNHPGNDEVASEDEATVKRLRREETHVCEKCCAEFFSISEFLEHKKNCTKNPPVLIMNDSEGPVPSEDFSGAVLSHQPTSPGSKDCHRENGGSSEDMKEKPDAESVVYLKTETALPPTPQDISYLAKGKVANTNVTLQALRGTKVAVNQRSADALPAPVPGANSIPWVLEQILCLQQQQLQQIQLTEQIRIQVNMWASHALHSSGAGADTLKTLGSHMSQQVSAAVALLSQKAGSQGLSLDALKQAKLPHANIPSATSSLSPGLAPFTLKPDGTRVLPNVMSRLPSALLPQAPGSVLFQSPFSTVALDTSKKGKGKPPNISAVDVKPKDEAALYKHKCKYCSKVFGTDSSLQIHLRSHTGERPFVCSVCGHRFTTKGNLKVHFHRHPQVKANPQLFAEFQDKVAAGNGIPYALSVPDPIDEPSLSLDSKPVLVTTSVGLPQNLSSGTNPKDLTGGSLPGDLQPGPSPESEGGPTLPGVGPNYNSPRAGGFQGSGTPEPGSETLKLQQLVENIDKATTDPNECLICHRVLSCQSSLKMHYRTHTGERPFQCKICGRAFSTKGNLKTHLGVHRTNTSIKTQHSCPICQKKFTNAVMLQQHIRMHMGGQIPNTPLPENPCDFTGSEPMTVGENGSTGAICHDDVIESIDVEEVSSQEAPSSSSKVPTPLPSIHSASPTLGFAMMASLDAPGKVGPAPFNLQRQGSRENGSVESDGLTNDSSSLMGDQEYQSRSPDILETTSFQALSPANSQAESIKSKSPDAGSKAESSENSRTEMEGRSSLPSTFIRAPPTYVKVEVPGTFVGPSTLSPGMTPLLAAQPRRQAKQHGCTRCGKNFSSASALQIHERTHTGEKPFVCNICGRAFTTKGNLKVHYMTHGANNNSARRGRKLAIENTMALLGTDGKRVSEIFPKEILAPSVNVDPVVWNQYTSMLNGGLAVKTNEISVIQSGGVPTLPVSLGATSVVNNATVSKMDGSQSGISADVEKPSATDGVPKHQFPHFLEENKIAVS
Technique: universal PBM
Form: double-stranded DNA, one strand shown
Sample: in vitro
Concentration: 600 nM
Setting: 8-mer, flanks averaged, mean of replicates
Direction: higher = stronger binding
Sequence | E-score
CTAGGCGC | -0.214
ACGTAAAG | 0.242
CGAAGCGC | -0.251
ACATGCCT | -0.027
ACCTTGAG | 0.0712
GCCAGCGA | -0.316
AAACAGAT | 0.218
GGGTTACA | -0.0287
GCTCTTGA | -0.0808
ACGTCACC | -0.134
AAGCGTAT | -0.00751
CACGAGTC | -0.123
AAATTTCG | 0.155
GCAAGAAC | -0.00072
CTGCTAAA | 0.0321
ATCGTCCA | -0.0622
CGCTCACC | -0.275
CCCTAATC | -0.102
CTCGTCGC | -0.146
TCTAATCA | 0.188
TCAAGTAA | 0.287
AATGTCGA | 0.146
AAGAAGGT | 0.0515
CTTTGCGC | -0.0312
AGACAAGA | 0.106

Series 3
Target: Histone acetyltransferase KAT6A, both winged helices, GST fusion (KAT6A, Homo sapiens, UniProt Q92794, residues 1-181)
Technique: protein binding microarray
Form: double-stranded DNA, one strand shown
Sample: in vitro
Concentration: not given
Setting: 8-mer, flanks averaged, mean of 2 arrays, mostly near background
Baseline: not given
Direction: higher = stronger binding
Construct (chain): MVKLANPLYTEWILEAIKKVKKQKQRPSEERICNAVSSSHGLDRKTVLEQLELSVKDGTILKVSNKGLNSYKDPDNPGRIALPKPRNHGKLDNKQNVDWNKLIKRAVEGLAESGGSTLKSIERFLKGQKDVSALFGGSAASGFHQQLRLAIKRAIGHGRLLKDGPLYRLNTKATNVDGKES
Sequence | E-score
CGTCCCAC | 0.0417
TGGCGACA | -0.109
ATGTAAGA | -0.112
GACAGCGC | 0.308
AGTTGAGG | -0.176
AGTTTTGA | -0.103
ATAAGCTC | -0.126
CAGCACGC | 0.192
GGCGCAAA | 0.228
CGGATTAC | 0.0832
CACCACCG | 0.124
AAGAAATA | -0.189
CAGAACCC | -0.00406
CACGGGAA | 0.237
AAAGACAC | -0.00411
ATCACGCG | 0.228
AGAGGGCA | -0.186
TAACCAAA | -0.207
ATGGTACA | -0.189
GATTAGAC | 0.0247
TCGCTTCA | -0.00404

Series 4
Target: CCND2, cyclin fold, Cln2 fusion (human)
Technique: yeast growth competition, sequencing
Sample: yeast
Setting: weak parent motif
Baseline: not given
Direction: higher = stronger binding
Starting sequence: RBL1 docking peptide (human); GSAKRRLFGEDPP
Substitution | normalised enrichment score
GSAKRGLFGEDPP [R6G] | 0.227
GSAKRRLFGERPP [D11R] | 0.126
GSAKRRLFGADPP [E10A] | 0.0959
GSAKRRMFGEDPP [L7M] | 0.123
GSAFRRLFGEDPP [K4F] | 0.00825
GSEKRRLFGEDPP [A3E] | 0.0695
GSAKRRLFGEIPP [D11I] | 0.188
GSAKRRLFGEDPV [P13V] | 0.879
GSAKRRLFGEDPH [P13H] | 0.79
GSATRRLFGEDPP [K4T] | 0.428
GSARRRLFGEDPP [K4R] | 0.556
GSAKRRLDGEDPP [F8D] | 0.661
GPAKRRLFGEDPP [S2P] | 0.407
GSAKRRLFGVDPP [E10V] | 0.0261
GSAKRRLFGESPP [D11S] | 0.422
GQAKRRLFGEDPP [S2Q] | 0.284
GSAKHRLFGEDPP [R5H] | 0.507
GSAKRRLFKEDPP [G9K] | 0.156
GDAKRRLFGEDPP [S2D] | -0.2
GEAKRRLFGEDPP [S2E] | 0.309
GSAKRRLHGEDPP [F8H] | 0.398
GSIKRRLFGEDPP [A3I] | -0.018
GSAKWRLFGEDPP [R5W] | 0.13
GSAKRRLFGQDPP [E10Q] | -0.18
VSAKRRLFGEDPP [G1V] | 0.422
